Experimental data of several laboratories.
Every numbered part comes from another study and shows a few of its results, in no order. Changes are numbered by the printed parent chain.

Series 1
Target: CCNB1, cyclin fold, Cln2 fusion (human)
Technique: yeast growth competition, sequencing
Medium: yeast
Notes: weak parent motif
Baseline: not given
Reading: higher = stronger binding
Parent: CDC6 docking peptide (human); TLKGRRLVFDNQL
Change	normalised enrichment score
TLKGRRLVFDNQI [L13I]	0.103
TMKGRRLVFDNQL [L2M]	0.356
TLKGRVLVFDNQL [R6V]	1.01
TLKCRRLVFDNQL [G4C]	1.05
TLKGRRCVFDNQL [L7C]	-0.337
ELKGRRLVFDNQL [T1E]	0.323
TLKGRRLVKDNQL [F9K]	0.836

Series 2
Target: Interferon regulatory factor 7, full length, phosphomimetic (IRF7, Homo sapiens, UniProt Q92985, residues 1-503, S101K/S471D/S472D/S475D/S476D/S477D/S483D/S484D/S487D)
Technique: protein-binding microarray
Form: double-stranded DNA, one strand shown
Medium: in vitro
Tested at: 250 nM
Notes: 60-bp whole probe
Together with: salmon DNA 0.4 mg/ml
Baseline: random background probes
Reading: higher = stronger binding
All sequences stand within: GCCTAGCAC … GTCTTGATTCGCTTGACGCTGCTG
Construct (chain): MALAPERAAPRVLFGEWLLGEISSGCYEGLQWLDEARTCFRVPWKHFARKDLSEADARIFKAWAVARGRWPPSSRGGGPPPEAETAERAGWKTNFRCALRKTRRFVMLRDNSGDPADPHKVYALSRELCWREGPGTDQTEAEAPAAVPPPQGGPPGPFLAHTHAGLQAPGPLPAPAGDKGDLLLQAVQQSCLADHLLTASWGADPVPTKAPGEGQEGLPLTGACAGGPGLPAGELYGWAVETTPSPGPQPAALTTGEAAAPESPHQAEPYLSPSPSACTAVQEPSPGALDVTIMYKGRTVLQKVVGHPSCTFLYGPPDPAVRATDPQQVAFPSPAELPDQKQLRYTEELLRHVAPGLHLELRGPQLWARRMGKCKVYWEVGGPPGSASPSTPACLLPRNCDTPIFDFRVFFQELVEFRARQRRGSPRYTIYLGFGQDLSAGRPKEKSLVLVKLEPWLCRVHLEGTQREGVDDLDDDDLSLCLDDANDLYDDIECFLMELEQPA
Strand	log fluorescence
GATGGTTTCGACTTTCGGGACGTGCTA	11.2 z-score
GACGGTTTCGACTTTCTGGACGTGCTA	10.3 z-score
CAATATTAGAGTCTCAACCCGTGCTAG	-0.0462 z-score
TCACCTCTAACTTCCCAACTGTGCTAG	0.63 z-score
GGCGGTTTCGGTCTCGGGACGTGCTAG	7.72 z-score
TCACTTAGGTTTTCTGGTACTGTGCTA	0.134 z-score
TTAGGTATCGGTCTCGTTTAGTGCTAG	2.79 z-score

Series 3
Target: Sal-like protein 4, full length isoform A (SALL4, Homo sapiens, UniProt Q9UJQ4, residues 1-1053)
Chain of UniProt Q9UJQ4 (whole entry, looked up): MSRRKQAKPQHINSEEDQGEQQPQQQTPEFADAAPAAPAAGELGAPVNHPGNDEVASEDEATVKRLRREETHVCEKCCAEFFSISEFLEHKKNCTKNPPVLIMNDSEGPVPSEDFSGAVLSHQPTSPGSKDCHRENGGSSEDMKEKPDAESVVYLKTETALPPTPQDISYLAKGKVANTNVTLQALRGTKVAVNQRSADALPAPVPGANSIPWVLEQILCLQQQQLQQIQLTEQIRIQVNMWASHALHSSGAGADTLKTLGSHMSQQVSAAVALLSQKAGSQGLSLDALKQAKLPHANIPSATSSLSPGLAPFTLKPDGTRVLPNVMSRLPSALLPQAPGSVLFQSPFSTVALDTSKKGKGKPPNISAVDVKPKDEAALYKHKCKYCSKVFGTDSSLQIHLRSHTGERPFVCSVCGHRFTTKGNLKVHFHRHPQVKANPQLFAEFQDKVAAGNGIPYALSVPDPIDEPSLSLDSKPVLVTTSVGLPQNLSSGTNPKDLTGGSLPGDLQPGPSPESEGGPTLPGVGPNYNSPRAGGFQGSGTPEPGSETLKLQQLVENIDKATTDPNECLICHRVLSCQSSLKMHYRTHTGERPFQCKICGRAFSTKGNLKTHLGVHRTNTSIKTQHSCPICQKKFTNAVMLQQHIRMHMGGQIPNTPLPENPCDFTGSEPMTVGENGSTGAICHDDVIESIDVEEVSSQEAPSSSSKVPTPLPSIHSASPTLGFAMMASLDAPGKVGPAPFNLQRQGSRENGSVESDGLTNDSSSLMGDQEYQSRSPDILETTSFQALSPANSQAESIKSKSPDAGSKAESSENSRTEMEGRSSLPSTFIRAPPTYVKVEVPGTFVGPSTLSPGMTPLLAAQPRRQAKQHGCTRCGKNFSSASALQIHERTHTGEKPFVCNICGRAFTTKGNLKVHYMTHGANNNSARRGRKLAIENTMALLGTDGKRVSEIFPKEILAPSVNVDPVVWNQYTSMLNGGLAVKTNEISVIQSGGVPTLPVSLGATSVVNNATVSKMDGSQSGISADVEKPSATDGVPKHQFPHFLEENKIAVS
Technique: universal PBM
Form: double-stranded DNA, one strand shown
Medium: in vitro
Tested at: 600 nM
Notes: 8-mer, flanks averaged, mean of replicates
Reading: higher = stronger binding
Strand	E-score
ACGATGTA	0.191
CTTGCGGA	-0.142
TACGGAAA	0.1
AGATCCTG	-0.126
CATAACTC	0.275
ACATCGGG	-0.337
AATCATGG	0.169
ACCACCGG	-0.247
GCCACCTA	-0.169

Mixed results
Substance	target	test	system	conditions	scale	measurement	result
PhoQ, residues 284 288 289 292 302 303 QWQEDG	PhoP, residues 12 14 15 18 19 GQAIL (Escherichia coli, UniProt P23836)	Sort-seq, refers to: YFP reporter	E. coli	PhoQ-PhoP variant library, together with: 10 µM Mg2+	baseline: high Mg2+ state, higher = stronger signaling	fold induction	2.41

Repeated from above (series 3):
Strand	E-score
CATAACTC	0.275
CTTGCGGA	-0.142
